Experimental data collected from several papers.
Every numbered part comes from another study and shows a few of its results, in no order. Substitutions count along the parent as printed.

Set 1
Organism: Saccharomyces cerevisiae
Observed: binding
Technique: competitive growth deep sequencing
Form: peptide
Strain: cyclin E1-Cln2 fusion strain
Tested at: concentration not given
Notes: peptide tiling library
Reading: direction not given
Molecule	growth enrichment score
GPVKLEFDVSDGAT	0.233
LAKRALKYTD	-0.242
NRLLKLFTRCLTPLVP	-0.0273
YLYLLLTQSLWCRV	0.676
KVRRNLFNQELLSP	1.73
ATNSSHTDAHEILVSD	0.276
RTEALEQGGLPKKLIF	0.638
EHCRVLFLDHVMYTIH	0.261
NLEPNAEFDKRTEFIT	0.623
AGSAKRRLFGEDPPKE	3.54
NESHLDKEHDAVEVAD	0.671
ELGMEHCEKFEISETS	1.05
ISRLFPPRTPGWHQLQ	0.253
PPTFLSTGEIHAFLSS	0.538
HRRRLLFACSPPPASQ	0.536
SFLIEYEFLIPPSLKP	1.63
RRRRLLFWDKETQI	0.538
VSRNLRSSLKSSLHTL	0.0404
SPREGHMMDALYAQVK	1.21

Set 2
Target: UBE2O UBC core domain (UniProt Q9C0C9)
Sequence of UniProt Q9C0C9 (whole entry, looked up): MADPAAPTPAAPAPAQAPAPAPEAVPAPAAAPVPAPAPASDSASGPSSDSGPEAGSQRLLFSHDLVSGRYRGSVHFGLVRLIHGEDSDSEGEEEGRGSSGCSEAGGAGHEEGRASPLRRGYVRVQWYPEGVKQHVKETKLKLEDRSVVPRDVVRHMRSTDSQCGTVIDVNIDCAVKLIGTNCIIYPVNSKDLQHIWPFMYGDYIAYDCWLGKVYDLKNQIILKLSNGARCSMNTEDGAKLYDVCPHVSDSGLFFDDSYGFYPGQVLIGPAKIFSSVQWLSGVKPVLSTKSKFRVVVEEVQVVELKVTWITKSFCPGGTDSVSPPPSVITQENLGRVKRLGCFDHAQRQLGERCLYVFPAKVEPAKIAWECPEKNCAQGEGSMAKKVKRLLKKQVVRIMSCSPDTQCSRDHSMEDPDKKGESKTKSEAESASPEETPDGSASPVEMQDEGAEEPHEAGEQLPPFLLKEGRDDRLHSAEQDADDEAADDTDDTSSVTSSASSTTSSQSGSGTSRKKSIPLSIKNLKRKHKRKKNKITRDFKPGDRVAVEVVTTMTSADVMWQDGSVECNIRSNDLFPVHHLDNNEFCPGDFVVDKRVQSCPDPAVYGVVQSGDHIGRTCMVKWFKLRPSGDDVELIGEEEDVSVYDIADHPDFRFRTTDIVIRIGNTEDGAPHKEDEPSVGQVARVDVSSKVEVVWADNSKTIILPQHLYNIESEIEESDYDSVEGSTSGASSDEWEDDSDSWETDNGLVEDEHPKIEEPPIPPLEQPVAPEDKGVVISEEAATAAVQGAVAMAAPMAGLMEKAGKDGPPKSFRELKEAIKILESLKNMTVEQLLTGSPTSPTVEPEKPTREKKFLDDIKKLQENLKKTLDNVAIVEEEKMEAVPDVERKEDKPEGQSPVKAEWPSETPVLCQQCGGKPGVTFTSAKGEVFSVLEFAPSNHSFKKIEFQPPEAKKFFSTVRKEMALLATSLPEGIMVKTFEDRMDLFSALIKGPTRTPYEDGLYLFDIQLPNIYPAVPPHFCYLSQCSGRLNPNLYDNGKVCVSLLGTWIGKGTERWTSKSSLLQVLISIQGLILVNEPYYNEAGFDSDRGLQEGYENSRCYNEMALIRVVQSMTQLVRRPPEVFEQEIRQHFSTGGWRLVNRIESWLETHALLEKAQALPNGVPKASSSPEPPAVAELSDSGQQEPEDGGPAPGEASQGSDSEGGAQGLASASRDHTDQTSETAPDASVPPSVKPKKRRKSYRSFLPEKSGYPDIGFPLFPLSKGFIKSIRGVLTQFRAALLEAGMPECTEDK
Technique: yeast two-hybrid
Medium: yeast
Notes: mostly zero background
Reference: not given
Reading: higher = stronger interaction
B1: TRIM28 RING domain (UniProt Q13263); chain GAEALELLEHCGVCRERLRPEREPRLLPCLHSACSACLGPAAPAAANSSGDGGAAGDGTVVDCPVCKQQCFSKDIVE
B2: UBE4B RING domain (UniProt O95155); chain KNARAEIDYSDAPDEFRDPLMDTLMTDPVRLPSGTIMDRSIILRHLLNSPTDPFNRQTLTESMLEPVPELKEQIQAWMREKQNSDH
B3: TRIM68 RING domain (UniProt Q6AZZ1); chain LVEAIVEEVACPICMTFLREPMSIDCGHSFCHSCLSGLWEIPGESQNWGYTCPLCRAPVQPRNLRP
B4: RMND5B RING domain (UniProt Q96G75); chain MKCWYHSVFACPILRQQTSDSNPPIKLICGHVISRDALNKLINGGKLKCPYCPMEQNPADGK
B5: TRIM32 RING domain (UniProt Q13049); chain NLDALREVLECPICMESFTEEQLRPKLLHCGHTICRQCLEKLLASSINGVRCPFCSKITRITSLTQ
B6: RNF7 RING domain (UniProt Q9UBF6); chain AICRVQVMDACLRCQAENKQEDCVVVWGECNHSFHNCCMSLWVKQNNRCPLCQQDWVVQRIGK
B7: MDM2 RING domain (UniProt Q00987); chain TQDKEESVESSLPLNAIEPCVICQGRPKNGCIVHGKTGHLMACFTCAKKLKKRNKPCPVCRQPIQMIVLTYFP
B8: RNF11 RING domain (UniProt Q9Y3C5); chain RDGSEKKIRECVICMMDFVYGDPIRFLPCMHIYHLDCIDDWLMRSFTCPSCMEPVDAALLSS
B9: PJA2 RING domain (UniProt O43164); chain DHTAIGQEQCCPICCSEYIKDDIATELPCHHFFHKPCVSIWLQKSGTCPVCRRHFPPAVIEA
B10: RNF17 RING domain (UniProt Q9BXT8); chain SQPWGAAEIQCTRCGRRVSRSSGHHCELQCGHAFCELCLLMTEECTTIICPDCEVATAVNTRQR
B11: TRIM74 RING domain (UniProt Q86UV6); chain SLLELEDWLQCPICLEVFKESLMLQCGHSYCKGCLVSLSYHLDTKVRCPMCWQVVDGSSSLP
B12: RNF10 RING domain (UniProt Q8N5U6); chain VRICSHEVPSCPICLYPPTAAKITRCGHIFCWACILHYLSLSEKTWSKCPICYSSVHKKDLKS
Molecule	lacZ reporter activity
B1 (TRIM28 RING domain)	0
B2 (UBE4B RING domain)	0
B3 (TRIM68 RING domain)	0
B4 (RMND5B RING domain)	0
B5 (TRIM32 RING domain)	0
B6 (RNF7 RING domain)	0
B7 (MDM2 RING domain)	0
B8 (RNF11 RING domain)	0
VPADASPDSKCPICLDRFDNVSYLDRCLHKFCFRCVQEWSKNKAECPLCKQPFDSIFHSV (TOPORS RING domain (UniProt Q9NS56))	0
B9 (PJA2 RING domain)	0
GSEEEEIPFRCFICRQAFQNPVVTKCRHYFCESCALEHFRATPRCYICDQPTGGIFNPA (RNF113B RING domain (UniProt Q8IZP6))	0
B10 (RNF17 RING domain)	0
MEEMEEELKCPVCGSFYREPIILPCSHNLCQACARNILVQTPESESPQSHRAAGSGVSDY (TRIM9 RING domain (UniProt Q9C026))	0
SNNDLASLFECPVCFDYVLPPILQCQSGHLVCSNCRPKLTCCPTCRGPLGSIRNLA (SIAH1 RING domain (UniProt Q8IUQ4))	0
B11 (TRIM74 RING domain)	0
B12 (RNF10 RING domain)	0

Set 3
Target: ABI1, truncated, D143A, DHFR fusion (Arabidopsis thaliana)
Technique: DHFR PCA, deep sequencing
Medium: yeast
Notes: methotrexate growth selection, single substitutions
Together with: (+)-ABA 200 µM
Reference: wild-type fitted maximum
Reading: higher = stronger binding
Parent: PYL1, truncated, DHFR fusion (Arabidopsis thaliana); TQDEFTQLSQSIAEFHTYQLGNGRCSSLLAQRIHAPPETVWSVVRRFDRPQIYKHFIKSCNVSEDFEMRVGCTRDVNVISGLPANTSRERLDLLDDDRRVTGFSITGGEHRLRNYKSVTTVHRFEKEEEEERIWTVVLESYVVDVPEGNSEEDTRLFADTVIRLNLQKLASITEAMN; partner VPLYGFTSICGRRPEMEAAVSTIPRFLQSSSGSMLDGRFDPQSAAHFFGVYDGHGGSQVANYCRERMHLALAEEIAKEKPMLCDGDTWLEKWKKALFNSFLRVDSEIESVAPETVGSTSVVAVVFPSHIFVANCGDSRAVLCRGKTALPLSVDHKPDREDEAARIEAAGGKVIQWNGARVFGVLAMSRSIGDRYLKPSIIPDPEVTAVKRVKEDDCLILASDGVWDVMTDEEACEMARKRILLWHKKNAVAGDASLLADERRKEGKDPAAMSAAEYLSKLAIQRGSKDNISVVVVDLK
Substitution	relative binding score [%]
V76I	107
N149V	49.2
H16T	-7.14
F66A	101
Q51E	94.6
Q167P	-2.19
G107F	31.2
R88F	102
V161M	75.6
V78Y	57
R113E	98.2
R49T	97.2
R45K	88.9
L112G	-3.05
C60T	89.4
A84V	24.4
N114H	94.1
I79L	83
I105D	-19.7
V143Q	58.2
V100Y	56.1
I33H	14.4
V118G	4.93
R123C	97.2
E130T	101

Set 4
Target: Hepatocyte nuclear factor 3-alpha (Foxa1, Mus musculus, UniProt P35582, residues 1-468, full length assumed)
Technique: EMSA with sequencing
Form: double-stranded DNA, one strand shown
Medium: in vitro
Tested at: 10 and 20 nM
Notes: whole designed probe, mean of two concentrations, ends assumed
Reference: negative control set to 0
Reading: higher = stronger binding
Residues (chain): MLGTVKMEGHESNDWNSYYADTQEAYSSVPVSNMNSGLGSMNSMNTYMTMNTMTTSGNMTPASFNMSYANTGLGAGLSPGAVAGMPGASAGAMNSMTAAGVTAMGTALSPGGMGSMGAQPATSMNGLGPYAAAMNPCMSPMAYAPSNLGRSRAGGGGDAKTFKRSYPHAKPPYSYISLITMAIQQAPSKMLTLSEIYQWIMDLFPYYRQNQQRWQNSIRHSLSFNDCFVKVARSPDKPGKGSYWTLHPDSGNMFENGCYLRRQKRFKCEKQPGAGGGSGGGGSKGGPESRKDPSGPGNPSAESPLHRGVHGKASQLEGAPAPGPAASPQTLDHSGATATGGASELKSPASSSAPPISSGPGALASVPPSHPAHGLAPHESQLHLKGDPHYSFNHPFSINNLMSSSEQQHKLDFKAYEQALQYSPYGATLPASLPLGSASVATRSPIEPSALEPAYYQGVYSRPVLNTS
Sequence	normalised bound fraction
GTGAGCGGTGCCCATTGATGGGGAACCTTCCCTAGCCCTGACTTCCCAAGCCTTAGTCATCACCCTCTCTCCCACCCAGGGCTCAGCACAGTACCTGGAACAGTCAAGCCCTCAATAAATGTTTACTGAGTGCATTAAAAAAAAAAAAAAGATTTTAATGAGTCATGCTTTAACTGAAGATTTTAGTGTAGTCAGTCATTGGGCCTTGGATGCCAAAGGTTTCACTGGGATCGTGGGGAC	0.13 ratio
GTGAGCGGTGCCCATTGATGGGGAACGCTCCTCACCCCCAACTGGGGGCCTGAGTAGGGACAGCACAGAGGCTGGTGCCTGCTGCTCTTCAGTCTCTGTTTCCACGGCTCAAACCAAAGTAAACAACAGAATGGCCATGTAGGTGCAAAGTACCAATGACAGCATGGACCCTTGGGTGGGCTCCAACACTCACCCTAATAAAGCTGGGGAGGAAGGGGCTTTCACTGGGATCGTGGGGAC	0.434 ratio
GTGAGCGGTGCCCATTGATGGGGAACGTAACTGTGAGATTTCTGAATTTACAACCTCCCTACAGGAAGTACCAGGTGGCCACGAAAGGCAGCATGGTCCCCATCTCTAATTAAGCTAATGTAAACAAGTGCCACATCATCGCGCCAAACCACAGATGAAACTGACGCCAATTTGGATTCTTTGGGTGGATGGATCTCCCAGAACTTCCAGCTGGCTAGATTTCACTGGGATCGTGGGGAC	0.354 ratio
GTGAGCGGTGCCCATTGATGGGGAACGCACTCGGCTCCCCAGAGGTCAGCGCACCCCAAGCCCAGAGGCCGGCTGGCCTCGGCACGTCTCACTCCACTATCTTCCCTCCTCCCTGAACTCTGTTTACACAAGGCTGGTCTTGGCTCTGAGGCTGCTAGATTTTAAATGCAATCTCACTGGTGACTCACTGGTGCATCGTCATTTGGCTTTGCCTGGAATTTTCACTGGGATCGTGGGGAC	0.477 ratio
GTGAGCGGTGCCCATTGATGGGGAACCATGTACAAACAAAATATGGGATGTGTATTTTCAGTAATTCCATGTACAAGTTAAACACTCTGATATTTGCATTTAAAATGTCAATGCACATTGTAAACATGAATGCTAACAATCTTTTTTTTTTTTCCTGAGACGGAGTCTTGCTCTATCGCCCAGGCTGGAGTGCAGCGGCACAATCTCTGCTTACTGCCATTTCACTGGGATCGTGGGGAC	0.393 ratio
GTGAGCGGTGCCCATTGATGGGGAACTGGAGGAAAATTTGGGAACATTTATAAATTATTTTCCTCTTATGATATGTGTAAGTGATGTCTAACTTAAGGAGTTTGCCTGTTATATTGTTCTTGTTTACTTTAATCTAGTGAAAATCCAGAAAGTACCAGGATTACTTTTGCAACCAGAAAAGTCCCTGGGGCTTACTCTGTACAGAGAGTAAACAGTCCCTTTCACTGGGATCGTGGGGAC	0.454 ratio
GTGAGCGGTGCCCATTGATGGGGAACCACGTGCACAAACCCATATGCCTTACAGAGTCAAGGGCTGTGATGAGGGTCCCCACCCTTGCACACTTCTCTGTCCTCTGTCTGGGCTCAGAGTAAACAGGGGGTCACCTGGAATCCAGGTCTAAGCTGGGCTTGGAGGTGTCCTAATGAAGCAGGATGCTGACATGCACTTCCCCAGGTCAGCTGGGGCTGTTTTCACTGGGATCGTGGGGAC	0.1 ratio
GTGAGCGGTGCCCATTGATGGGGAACTTCTTGGAAACGTAGGCACTAACTATATCATGGCCACCTAGGGCTTTCCCTTTCCTGTTTCATATTAGTACATCACAAAGGACTGAGTTCTCGATGTTTACTCAGTAAGAAGATAGCAGAAGAGTGGCTGAGAAGTAATAATCCTCTGTTTGTGTGATGACTGTATCCTGCTTGTGGCAACAGTGTGATGTGGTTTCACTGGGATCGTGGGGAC	0.381 ratio

Some of these lines once more (set 3):
Substitution	relative binding score [%]
V76I	107
H16T	-7.14
V78Y	57
F66A	101
A84V	24.4
